# Measured values gathered from unrelated publications.
# A part holds a random share of what one study measured. Values joined by “and” are separate records of one study, mostly repeats; a detail may differ.

# Block 1
# Structure (SMILES): Cc1ncsc1-c1ccc(C2(NC(=O)C3CC(O)CN3C(=O)C(NC(=O)c3ccc(COc4c(-c5c(C)c(F)cc6[nH]ncc56)c(C5CC5)cc5c(N6CC7CC6CN7)nc(OC6CCOCC6)nc45)cc3)C(C)(C)C)CC2)cc1 (stereo not drawn)
# Cell line: AsPC-1
# Method: in-cell ELISA
# Notes: individual replicates
setting,phospho-ERK1/2 level
3 nM,98.8% and 93.3% and 97.8% and 86.5% and 102%
300 pM,87.2% and 106% and 102% and 92.1%
3 µM,19.6% and 21.3% and 18.6% and 17.5% and 11.3% and 19%
10 µM,14.4% and 22.3% and 14.5% and 8.56% and 12.9% and 9.01%

# Block 2
# SMILES: Cc1ccc2c(c1)OC(O)(C(=O)O)C(=O)N2Cc1ccccc1 (stereo not drawn)
organism,test,system,setting,how to read,inhibition
Oryza sativa,fresh weight,,"soil surface spray, 150 g ai/ha, 21 days, pre-emergence crop safety",,8.1% and 6% and 7.5%
Arabidopsis thaliana,hypocotyl length,"Col-0, seedlings",25 µg/mL,,12.9%
Arabidopsis thaliana,root length,Col-0,"12.5 µg/mL, 7 days, seed germination, dark",,17%
Alopecurus aequalis,fresh weight,,"150 g ai/ha, pre-emergence treatment",,32.5% and 36.8% and 35.1%
Zea mays,fresh weight,,"soil surface spray, 150 g ai/ha, 21 days, pre-emergence crop safety",,9.8% and 12.8% and 13.4%
Arabidopsis thaliana,root length,Col-0,"25.0 µg/mL, 7 days, seed germination, dark",,16.8%
Arabidopsis thaliana,root length,"Col-0, seedlings",100 µg/mL,relative to: water control,42.4%
Arabidopsis thaliana,root length,"Col-0, seedlings",100 µg/mL,,42.4%
Arabidopsis thaliana,hypocotyl length,Col-0,"3.125 µg/mL, 7 days, seed germination, dark",,0.7%
Alopecurus japonicus,fresh weight,,"150 g ai/ha, pre-emergence treatment",,64.5% and 63.6% and 62.1%
Arabidopsis thaliana,hypocotyl length,Col-0,"6.25 µg/mL, 7 days, seed germination, dark",,2.2%
Arabidopsis thaliana,root length,Col-0,"50.0 µg/mL, 7 days, seed germination, dark",,29.4%
Arabidopsis thaliana,root length,"Col-0, seedlings",12.5 µg/mL,relative to: water control,17%
Arabidopsis thaliana,root length,"Col-0, seedlings",12.5 µg/mL,,17%

# Block 3
# Compound: C[C@@H]1CN(c2ccc(-c3cc(C(=O)NCCOCCOCCOCCOCCNC(=O)/C=C/c4[nH]cc(C(=O)N[C@@H](CC(N)=O)c5ccc(F)c(Cl)c5)c4-c4ccc(Cl)cc4F)ccc3F)cc2NC(=O)c2c[nH]c(=O)cc2C(F)(F)F)C[C@H](C)N1C
# Read-out: thermal unfolding
# Method: differential scanning fluorimetry
# Tested at: 5.5 µM
# Direction: higher = more unfolded
# WDR5: WD repeat-containing protein 5 (WDR5, Homo sapiens, UniProt P61964)
# DCAF1: DDB1- and CUL4-associated factor 1 (DCAF1, Homo sapiens, UniProt Q9Y4B6)
# Sequence of UniProt Q9Y4B6 (whole entry, looked up): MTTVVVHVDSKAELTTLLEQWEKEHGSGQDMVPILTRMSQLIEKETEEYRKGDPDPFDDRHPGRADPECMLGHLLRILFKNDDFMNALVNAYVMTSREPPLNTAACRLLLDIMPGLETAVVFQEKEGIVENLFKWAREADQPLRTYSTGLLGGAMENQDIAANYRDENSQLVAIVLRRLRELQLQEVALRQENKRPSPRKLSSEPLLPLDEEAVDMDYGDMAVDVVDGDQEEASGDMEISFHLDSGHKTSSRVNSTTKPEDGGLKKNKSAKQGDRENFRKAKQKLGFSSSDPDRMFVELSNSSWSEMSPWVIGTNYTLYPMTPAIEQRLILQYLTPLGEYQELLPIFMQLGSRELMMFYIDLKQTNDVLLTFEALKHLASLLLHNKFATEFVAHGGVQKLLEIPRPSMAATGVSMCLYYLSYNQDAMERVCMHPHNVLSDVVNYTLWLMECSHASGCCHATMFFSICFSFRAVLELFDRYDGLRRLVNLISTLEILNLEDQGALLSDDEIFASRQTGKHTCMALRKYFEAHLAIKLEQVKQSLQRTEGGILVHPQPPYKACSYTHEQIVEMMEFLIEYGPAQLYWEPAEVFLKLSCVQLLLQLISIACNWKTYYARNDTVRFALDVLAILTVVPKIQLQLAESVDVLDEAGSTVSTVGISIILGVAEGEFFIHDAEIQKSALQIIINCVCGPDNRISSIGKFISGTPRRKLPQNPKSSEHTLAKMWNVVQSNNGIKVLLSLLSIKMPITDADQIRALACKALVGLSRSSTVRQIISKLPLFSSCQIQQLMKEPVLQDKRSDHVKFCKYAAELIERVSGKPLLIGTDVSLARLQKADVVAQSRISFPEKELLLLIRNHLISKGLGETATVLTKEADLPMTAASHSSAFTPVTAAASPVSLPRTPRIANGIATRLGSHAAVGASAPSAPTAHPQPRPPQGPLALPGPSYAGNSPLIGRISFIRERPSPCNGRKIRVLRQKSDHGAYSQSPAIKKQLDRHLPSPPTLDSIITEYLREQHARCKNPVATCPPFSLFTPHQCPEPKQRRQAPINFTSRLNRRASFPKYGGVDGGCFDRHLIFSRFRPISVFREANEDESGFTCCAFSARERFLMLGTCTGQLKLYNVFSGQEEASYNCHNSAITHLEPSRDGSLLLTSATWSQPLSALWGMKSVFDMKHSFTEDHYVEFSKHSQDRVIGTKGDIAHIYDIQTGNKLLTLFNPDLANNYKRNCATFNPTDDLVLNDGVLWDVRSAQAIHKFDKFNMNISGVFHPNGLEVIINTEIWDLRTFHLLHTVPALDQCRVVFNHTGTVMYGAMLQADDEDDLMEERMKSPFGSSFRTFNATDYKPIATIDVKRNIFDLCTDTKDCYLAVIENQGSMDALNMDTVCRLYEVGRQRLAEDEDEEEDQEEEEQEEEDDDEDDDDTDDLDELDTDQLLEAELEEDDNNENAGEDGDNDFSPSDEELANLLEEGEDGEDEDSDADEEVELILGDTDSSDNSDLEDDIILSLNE
target,setting,SYPRO Orange fluorescence
WDR5,44.8 °C,15300 a.u.
DCAF1,58.81 °C,35000 a.u.
WDR5,79.01 °C,37500 a.u.
DCAF1,64.41 °C,57800 a.u.
DCAF1,26.2 °C,8930 a.u.
DCAF1,70.21 °C,55600 a.u.
DCAF1,82.81 °C,42400 a.u.
WDR5,54.01 °C,16800 a.u.
DCAF1,91.61 °C,33300 a.u.
DCAF1,83.01 °C,42300 a.u.
DCAF1,84.41 °C,40900 a.u.

# Block 4
# Structure (SMILES): CCN1/C(=C/C=C2\CCCC(/C=C/C3=[N+](CC)c4ccccc4C3(C)C)=C2NCCCCCCCCN2CCC(Nc3nc4ccccc4n3Cc3ccc(F)cc3)CC2)C(C)(C)c2ccccc21
# Cell line: U-87 MG
# Tested at: concentration not given
# Relative to: DMSO
test,log2 fold change
measured: CFAP45 mRNA,-1.43
measured: PTX3 mRNA,1.91
measured: ALDH3B1 mRNA,-1.54
measured: UGCG mRNA,1.72
measured: TMEM41B mRNA,1.23
measured: ZHX2 mRNA,1.46
measured: SERPINA9 mRNA,5.83
measured: DENND2B mRNA,-1.74
measured: C10orf90 mRNA,-1.94
measured: TRERF1 mRNA,-2.45
measured: LIMS4 mRNA,1.38
measured: INSIG1 mRNA,1.77
measured: GPR158 mRNA,4.26
measured: CLDN14 mRNA,3.32
measured: LMNA mRNA,-1.21
measured: SAMD9L mRNA,-0.885

# A few entries again (block 4):
test,log2 fold change
measured: C10orf90 mRNA,-1.94
measured: LIMS4 mRNA,1.38
measured: CFAP45 mRNA,-1.43
measured: DENND2B mRNA,-1.74
